Results pooled from the literature.
Each line is one published result; not all experiments were run side by side. Numbers after ± are the reported error.

Compound	test	system	setting	scale	measurement	result
NC[C@@H](C(=O)Nc1ccc(-c2cn[nH]c2)cc1)c1ccccc1	metabolic stability	monkey, liver microsomes			microsomal CLint	4.21 µL/min/mg
C[C@H](NC(=O)COC(=O)[C@H](C)NC(=O)CO)C(=O)O		water	pH 8, 65 °C		depolymerization half-life	36 s
COC[C@@H](CC(C)C)NC(=O)c1ccc(C)c(CO)c1	LC-MS	Sprague-Dawley rats, pooled sexes, plasma	oral, 100 mg/kg of parent drug, 1 h	relative to: total metabolite peak area	metabolite peak area	< 1%
C=C(C)C(=O)Nc1ccc(-c2c(-c3ccc(Oc4nccc(C)n4)cc3)c3c(N)ncnc3n2C)cc1		cynomolgus monkey, plasma	oral		bioavailability	19%
COc1cc(N(C)CCN(C)C)c(NC(=O)CCSCC(NC(C)=O)C(=O)O)cc1Nc1nccc(-c2cn(C3CC3)c3ccccc23)n1 (centres unmarked)	radio-HPLC	human, feces	dose not given, 96 to 240 h, sample holds 16.61% dose	relative to: sample radioactivity	share of radioactivity	2.69%
COC(=O)c1ccc(-c2cn(Cc3cc(Cl)ccc3O[11CH3])nn2)cc1	HPLC	rhesus monkey, plasma	90 min		parent fraction	70%
Cn1c(=O)oc2ccc(-c3ccc(CC(C#N)NC(=O)C4CNCCCO4)c(F)c3)cc21 (centres unmarked)	item: alanine aminotransferase increased	human	60 mg single dose, fasted		subjects with TEAE	0%
CCC(C)n1c(C(=O)Nc2cnc(C(=O)NC)n(CC(C)C)c2=O)ncc(NC(=O)c2ncc(NC(=O)c3ccccc3)c(=O)n2Cc2ccc(OC)cc2)c1=O (centres unmarked)	HPLC	Tween 20/ethanol/phosphate buffer	24 h, pH 7.4, 37 °C		decomposition	0.7%
Nc1nc2cnc(C(=O)N3CCOC[C@@H]3c3ccc(C(F)(F)F)cc3)cc2c2c1COC2		human	oral, 1200 mg once daily		tolerability	not toxic
CCCCCCCCCCCCCCCC(=O)N[C@@H](CCCCN)C(=O)N[C@@H](CCCCN)C(=O)N[C@@H](CO)C(=O)N[C@@H](CCCNC(=N)N)C(=O)N[C@@H](C)C(=O)N[C@@H](CC(C)C)C(=O)N[C@@H](Cc1ccccc1)C(N)=O		cynomolgus monkey, female	30 mg/kg, day 1		activated partial thromboplastin time	26.2 ± 2.8 s
COCCOCCOCCOCCOCCOCCOCCOCCC(=O)NCCCc1cc2cc3nc(cc4[nH]c(cc5nc(c(OC)c1[nH]2)C(=O)C5(C)C)cc4CCc1ccc(C(=O)O)cc1)CC3(C)C		water with 5% DMF	room temperature		Qy absorption FWHM	25 nm
CC(=O)N[C@H](CC(=O)O)C(=O)N[C@H](Cc1c[nH]c2ccccc12)C(=O)N[C@H](Cc1ccccc1)C(=O)N[C@H](CCCCN)C(=O)N[C@H](C)C(=O)N[C@H](Cc1ccccc1)C(=O)N[C@H](Cc1ccc(O)cc1)C(=O)N[C@H](CC(=O)O)C(=O)N[C@H](CCCCN)C(=O)N[C@@H](C(=O)N[C@H](C)C(=O)N[C@H](CCC(=O)O)C(=O)N[C@H](CCCCN)C(=O)N[C@H](Cc1ccccc1)C(=O)N[C@H](CCCCN)C(=O)N[C@H](CCC(=O)O)C(=O)N[C@H](C)C(=O)N[C@H](Cc1ccccc1)C(N)=O)C(C)C		statin-treated high-risk CHD women, plasma	oral, 100 mg daily, day 13, 0 to 8 h, mean, undetectable set to 0		AUC(0-t)	11.6 ng·h/mL
O=C([O-])CN1CCN(CC(=O)[O-])CCN(C(CCC(=O)NCCCCCNC(=O)CCC(NC(=O)NC(CCC(=O)O)C(=O)O)C(=O)O)C(=O)O)CC1.[64Cu+2] (centres unmarked)	radio-HPLC	mice, urine	120 min		intact complex in urine	< 10%
CCCC[C@H](NC(=O)[C@H](CC(C)C)N(C)C(=O)CNC(=O)[C@@H](NC(=O)[C@H](Cc1ccccc1)NC(=O)[C@H](CCCCN)NC(=O)[C@@H](N)CC(=O)O)C(C)C)C(N)=O		anesthetized Gottingen minipig	subcutaneous, 100 µg/kg	relative to: baseline	mean arterial pressure	-16 ± 10.2%
CCCC(CCC)NC(=O)c1ccc(O)c(OC2OC(C(=O)O)C(O)C(O)C2O)c1 (centres unmarked)	LC-MS	Sprague-Dawley rats, pooled sexes, plasma	oral, 200 mg/kg of parent drug, 1 h	relative to: total peak area	metabolite peak area	0.98%
CCNC(=O)OCc1c(COC(=O)NCC)c(-c2ccc(OC)cc2)n2c1Cc1ccccc1-2		BALB/c nude mice, blood	dose not given, day 10		AST activity	60 ± 6.3 U/L
CN1C(=O)c2cccc3c2C1=Cc1ccccc1N3Cc1cccc(NC2CCN([11CH3])CC2)c1	PET/CT	C57BL/6 mice, male, brain	intravenous, dose not given, baseline		SUVmax	0.07
[11CH3]c1ccc2nc(C3CCC3)n(-c3ccc4[nH]ncc4c3)c2n1		standard human adult, ovaries			absorbed radiation dose	3.8 µSv/MBq
CC[C@@H](C)N([11CH3])C(=O)c1nc(-c2ccc(Cl)cc2)c2ccccc2n1		rhesus monkey male, plasma	intravenous, TSPO preblock		time to 50% parent radioligand in plasma	13.9 min
O=C1c2sc(-c3ccc(N4CCC(F)C4)nc3F)nc2CCN1c1cccnc1 (centres unmarked)	PET imaging	rhesus monkey, whole brain	intravenous bolus		time to peak uptake	5.5 min
CCc1cc(Nc2nc(-c3ccc(-n4cnc(C)c4)c(F)c3)cs2)c(C)cc1C		human, both sexes, plasma	oral, 100 mg once daily, day 14, multiple dose, geometric mean		apparent terminal volume (Vz/F)	392000 mL
O=C(CCc1ccc(CNC(C(=O)O)C2CCCCC2)cn1)NO (centres unmarked)		healthy male humans, plasma	oral, 50 mg, single dose, geometric mean		AUC(0-t)	289 ng·h/mL
COc1ccc2cc(-c3ccc(-c4ccc(C)cn4)nc3)oc2c1	TCSPC	DMSO			fluorescence lifetime	1.8 ns
COc1cc(OC)cc(C2=C3C(C)=C(I)C(C)=[N+]3[B-](F)(F)n3c(/C=C/c4cccs4)c(I)c(C)c32)c1		DMSO			Stokes shift	453 cm⁻¹
CN1C(=O)[C@@H](Cc2ccc(O)c(I)c2)NC(=O)CNC(=O)[C@H](Cc2ccc3ccccc3c2)NC(=O)[C@H](CCCNC(=N)N)NC(=O)[C@H]1CCCNC(=O)c1ccc(CNC(=O)CN2CCN(CC(=O)O)CCN(CC(=O)O)CC2)cc1 [fluorine-18 labelled]		CB17 SCID mouse, female, Daudi lymphoma xenograft	intravenous, 300 kBq, 1 h	relative to: tumour over blood	tissue ratio	7 ± 1.2
CC(C)c1cnc(-c2cc(Cl)ccc2F)cc1Nc1ccncc1C(=O)NC(CO)CO	item: Headache	solid tumour patients	oral, dose not given, phase I monotherapy		treatment-related adverse events	14.3%
O=C1CCc2ccc(NS(=O)(=O)c3cccc(Oc4ccccc4)c3)cc2N1		C57BL/6 mouse, plasma	oral, 3 mg/kg		half-life	4.2 h
CCCC[C@@H]1NC(=O)[C@@H](NC(=O)[C@H](CCC(=O)O)NC(=O)CNC(=O)CN2CCN(CC(=O)O)CCN(CC(=O)O)CCN(CC(=O)O)CC2)CCCCNC(=O)C[C@@H](C(N)=O)NC(=O)[C@H](C(C)C)NC(=O)[C@@H]2CCCN2C(=O)[C@H](CCCNC(=N)N)NC(=O)CNC(=O)[C@H](Cc2c[nH]c3ccccc23)NC(=O)[C@H](CCCNC(=N)N)NC(=O)[C@@H](Cc2ccccc2)NC(=O)[C@H](Cc2c[nH]cn2)NC(=O)[C@H](CCC(=O)O)NC1=O [gallium-67 labelled]		C57 mice, B16/F1 flank melanoma	intravenous, 2 h, together with: blocking peptide 10 µg	relative to: tumour over blood	tissue ratio	1.54
CC(C)C[C@@H](NC(=O)[C@H](NC(=O)[C@H]1CCCN1)[C@H](C)O)C(=O)N[C@H](Cc1c[nH]cn1)C(=O)N[C@@H](C(=O)N[C@H](Cc1c[nH]cn1)C(=O)N[C@H](CC(N)=O)C(=O)N[C@H](CCCNC(=N)N)C(=O)N[C@H](CCCNC(=N)N)C(=O)N[C@H](CCCNC(=N)N)C(=O)N[C@H](CCCNC(=N)N)C(=O)N[C@H](CCCNC(=N)N)C(N)=O)[C@H](C)O		Beagle dog, plasma	intravenous, 3 mg/kg, single dose		Vss	0.66 L/kg

A few entries again:
Compound	test	system	setting	scale	measurement	result
O=C1c2sc(-c3ccc(N4CCC(F)C4)nc3F)nc2CCN1c1cccnc1 (centres unmarked)	PET imaging	rhesus monkey, whole brain	intravenous bolus		time to peak uptake	5.5 min
CC[C@@H](C)N([11CH3])C(=O)c1nc(-c2ccc(Cl)cc2)c2ccccc2n1		rhesus monkey male, plasma	intravenous, TSPO preblock		time to 50% parent radioligand in plasma	13.9 min
CCCC[C@@H]1NC(=O)[C@@H](NC(=O)[C@H](CCC(=O)O)NC(=O)CNC(=O)CN2CCN(CC(=O)O)CCN(CC(=O)O)CCN(CC(=O)O)CC2)CCCCNC(=O)C[C@@H](C(N)=O)NC(=O)[C@H](C(C)C)NC(=O)[C@@H]2CCCN2C(=O)[C@H](CCCNC(=N)N)NC(=O)CNC(=O)[C@H](Cc2c[nH]c3ccccc23)NC(=O)[C@H](CCCNC(=N)N)NC(=O)[C@@H](Cc2ccccc2)NC(=O)[C@H](Cc2c[nH]cn2)NC(=O)[C@H](CCC(=O)O)NC1=O [gallium-67 labelled]		C57 mice, B16/F1 flank melanoma	intravenous, 2 h, together with: blocking peptide 10 µg	relative to: tumour over blood	tissue ratio	1.54
